Results of several laboratories.
A part holds a random share of what one study measured. Changes are numbered by the printed parent chain.

Sample 1 — technique: RNA Bind-n-Seq; form: RNA; matrix: in vitro; concentration: not given; setting: RNA with constant flanks, ends assumed; reference: input RNA pool; direction: higher = stronger binding
Target: RING finger protein unkempt homolog, zinc fingers 1-6, GST-SBP tag (UNK, Homo sapiens, UniProt Q9C0B0, residues 30-357)
Sequence of UniProt Q9C0B0 (30-357, looked up): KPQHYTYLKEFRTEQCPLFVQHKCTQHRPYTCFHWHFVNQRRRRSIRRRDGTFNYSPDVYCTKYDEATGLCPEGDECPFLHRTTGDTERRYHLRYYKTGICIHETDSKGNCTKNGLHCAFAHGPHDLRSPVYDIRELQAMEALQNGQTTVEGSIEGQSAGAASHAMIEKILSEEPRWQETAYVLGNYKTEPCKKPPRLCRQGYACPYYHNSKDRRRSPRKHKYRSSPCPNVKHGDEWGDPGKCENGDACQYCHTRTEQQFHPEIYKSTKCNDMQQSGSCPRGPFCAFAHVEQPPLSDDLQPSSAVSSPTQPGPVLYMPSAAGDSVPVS
Strand	bound/input enrichment
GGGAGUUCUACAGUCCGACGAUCUAUUUCUUAUACUGUACAUGGUACAUAAAGUGCUUUCAAGAGGCUAAAACAAAACUUUUCCCGCAAAUAAUUUAAGUUAAAUGUAAAAUAUCCUAUAAAACCUAGAAUUGGUCAAAAGCACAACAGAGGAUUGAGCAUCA	2.89 ratio
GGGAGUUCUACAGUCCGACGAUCAUAUCUAUACACACAUGUGUGUUGUGUAUAUGCAUGUGUGUGUGUGCGUGUGUGUACCGUUUCCGCUCCAAGCCAAGCAAGUUUGUGUUUGGAUAGAGGGGAACUUAACUAUUAACUACACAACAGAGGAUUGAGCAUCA	0.159 ratio
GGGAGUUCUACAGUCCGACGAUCACCGAUUUAUAUGACAUAAAACGUGCAGUUGUUCAUACCCAUCUUCUUAACCCUGAGUGGUCCGUGAAUUACUUUGGGUCCUUAUCAGUUGAAGAUUCCCUAGAAUGCCUCAGAGCCAUGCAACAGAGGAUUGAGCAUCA	0.195 ratio
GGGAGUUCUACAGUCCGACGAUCUAAAGAGCAGCUGGAUUCAUCUAAUAGUACCAUUGCCAUUUUACAAACUGAGAAAGACAAACCCGAGUUGGAAAUUACAGAUUCUAAAAAAGAACAAGAUGAUCUCUUGGUGCUCUUGGCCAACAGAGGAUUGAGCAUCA	0.59 ratio
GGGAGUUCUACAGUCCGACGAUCGACAGUGGAGAAGAGGUGGACUUGGUUAAGGAAGCGGACGUCCCCUCAGCCAUUAGUCUCCUCCGGUUUUUCCUGCAGGAGCUCCCUGAGCCCGUCAUACCUGGCAGCUUGCAUAUUCACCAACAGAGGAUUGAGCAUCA	0.268 ratio
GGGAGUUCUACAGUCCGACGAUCCAUUAUGACCGGGCUCAUAUUGCUCAACUGUGUGAAAAGGCUGGCCUACUGCAGCGUGCAUCCGAACAUUUCACUGAUUUAUAUGAUAUAAAACGUGCAGUGGUUCACACCCAUCUUCUUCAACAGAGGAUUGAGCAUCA	0.118 ratio
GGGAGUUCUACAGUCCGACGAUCUUUAUAGAAAUCACCGAUGACCAGUUUGACUUUCAUACAUACUGUAUGAGGAAGAUCACCCUCCGAUCAUAUGUGGACUUAUUAAAACUAGAAGAUGUACUUCGACAGCAUCCAUUUUACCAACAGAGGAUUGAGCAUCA	0.834 ratio
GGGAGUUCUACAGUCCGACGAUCCAUAUUAAAUAUGAUCCAGAAAUUAUUGGUCCCAGAGAUAUUAUCCAUACCAUCGGAAGCUCCGGCUUUGAAGCUUCUUUGGUCAAGAAAGAUCGAUCAGCCAACCACUUAGAUCAUAAACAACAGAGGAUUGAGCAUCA	0.35 ratio
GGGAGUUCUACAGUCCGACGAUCUCCACGGGAUUUAACAAAUGUUCAAAGACAUAUAUGCAUCAUUACACUCCUAUAACACAACCGUUUUACUGUCUUAAGAAUCAUGCGUAGCCAGGCAGUGGUGUACACCUUUAAUCCCAGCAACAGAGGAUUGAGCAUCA	0.282 ratio
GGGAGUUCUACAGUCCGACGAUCCUCGGCACUGGUACCCUUUACAUCGCUGAGAGCCGCCUGUCUUGGUUAGAUGGCUCUGGAUCCGGAUUCUCACUGGAAUACCCCACCAUUAGUUUACAUGCAUUAUCCAGGGACCGAAGUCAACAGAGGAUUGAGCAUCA	3.66 ratio
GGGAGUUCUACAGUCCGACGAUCAGGGAAGACUUGAUCUGUGGACUUUUGAAAGCAACUUGAGGAAAAACACAUAACAGAAUCUACCGGUGUGGACAAUAUGUGAUAUUGCUAAAUAAUGUCAAGUAGGAAAUAAAAGAGACUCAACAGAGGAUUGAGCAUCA	1.3 ratio

Sample 2 — target: MAFF, bZIP domain (human); technique: DHFR protein complementation; matrix: yeast; reference: wild-type JUN-FOS pair; direction: higher = stronger binding
Setting: single substitutions, most at no-binding floor
Parent: JUN, bZIP domain (human); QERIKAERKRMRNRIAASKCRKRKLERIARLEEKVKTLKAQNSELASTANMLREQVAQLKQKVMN; partner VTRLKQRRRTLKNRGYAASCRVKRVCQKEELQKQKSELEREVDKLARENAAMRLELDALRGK
Variant	binding fitness [natural log]
A49V	-1.2
A40M	-1.36
K34E	-1.47
A46E	-1.45
A57M	-1.36
L52H	-1.49
A57S	-1.43
T48W	-1.28
K36M	-1.58
T37K	-1.4
L31V	-1.44
E32A	-1.19
N42H	-0.977
E44G	-1.5
E44R	-1.38
T37N	-1.42
Q55P	-1.53
I28H	-1.49
K36A	-1.51

Sample 3 — technique: DHFR PCA, deep sequencing; matrix: yeast; together with: (+)-ABA 17 µM; reference: wild-type fitted maximum; direction: higher = stronger binding
Target: ABI1, truncated, D143A, DHFR fusion (Arabidopsis thaliana)
Setting: methotrexate growth selection, single substitutions
Parent: PYL1, truncated, DHFR fusion (Arabidopsis thaliana); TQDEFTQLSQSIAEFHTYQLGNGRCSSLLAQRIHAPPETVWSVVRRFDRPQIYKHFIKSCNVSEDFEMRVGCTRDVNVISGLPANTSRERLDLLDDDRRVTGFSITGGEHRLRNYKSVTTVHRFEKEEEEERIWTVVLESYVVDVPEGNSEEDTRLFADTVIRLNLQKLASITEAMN; partner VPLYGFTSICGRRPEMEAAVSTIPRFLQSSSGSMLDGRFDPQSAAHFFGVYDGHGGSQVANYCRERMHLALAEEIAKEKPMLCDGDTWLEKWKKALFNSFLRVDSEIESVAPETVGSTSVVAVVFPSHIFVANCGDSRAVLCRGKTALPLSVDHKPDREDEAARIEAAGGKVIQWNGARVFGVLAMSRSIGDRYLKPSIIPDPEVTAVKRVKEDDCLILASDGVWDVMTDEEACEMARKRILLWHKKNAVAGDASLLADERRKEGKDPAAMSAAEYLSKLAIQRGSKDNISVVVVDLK
Variant	relative binding score
T86N	81.6%
H16N	-3.02%
S27I	1.44%
H34A	86.8%
E151H	70.4%
I33N	-14.5%
E139P	-8.98%
L93F	75.4%
R163E	35.4%
L112Y	-4.65%
A30F	84.2%
E4R	60.3%
N85G	72.2%
N149H	9.5%
S42A	84.9%
F124E	82.3%
H110T	33.7%
V136Q	21.9%
K126M	91.1%
L93D	7.64%
F103E	-8.94%

Sample 4 — target: CDC34 UBC core domain (UniProt P49427); technique: yeast two-hybrid; matrix: yeast; setting: mostly zero background; reference: not given; direction: higher = stronger interaction
B1: TRIM52 RING domain (UniProt Q96A61); chain PMQTLQEEAVCAICLDYFKDPVSISCGHNFCRGCVTQLWSKEDEEDQNEEEDEWEEEEDEEAV
B2: TRIM55 RING domain (UniProt Q9BYV6); chain TMDNLEKQLICPICLEMFTKPVVILPCQHNLCRKCASDIFQASNPYLPTRGGTTMASGGRFRCPSCRHEVVLDRHG
B3: RNF150 RING domain (UniProt Q9ULK6); chain DKETESDFDNCAVCIEGYKPNDVVRILPCRHLFHKSCVDPWLLDHRTCPMCKMNILKALGIP
B4: PHF7 RING domain (UniProt Q9BWX1); chain IQHGHVGEESCILCCEDLSQQSVENIQSPCCSQAIYHRKCIQKYAHTSAKHFFKCPQCNNRKEFPQEML
B5: RFPL2 RING domain (UniProt O75678); chain MAALFQEASSCPVCSDYLEKPMSLECGCAVCLKCINSLQKEPHGEDLLCCCSSMVSRKNKIRR
B6: RNF14 RING domain (UniProt Q9UBS8); chain IKCFNSKLFLCSICFCEKLGSECMYFLECRHVYCKACLKDYFEIQIRDGQVQCLNCPEPKCPSVATPGQVK
B7: NSMCE1 RING domain (UniProt Q8WV22); chain RETYPDAVKICNICHSLLIQGQSCETCGIRMHLPCVAKYFQSNAEPRCPHCNDYWPHEIPKV
B8: TRIM10 RING domain (UniProt Q9UDY6); chain SVTSLADEVNCPICQGTLREPVTIDCGHNFCRACLTRYCEIPGPDLEESPTCPLCKEPFRPGSFRP
B9: RNF175 RING domain (UniProt Q8N4F7); chain LPTRSLSDNICAVCGQKIIVELDEEGLIENTYQLSCNHVFHEFCIRGWCIVGKKQTCPYCKEKVDLKRMIS
B10: RNF43 RING domain (UniProt Q68DV7); chain SGSSCSSAPVCAICLEEFSEGQELRVISCLHEFHRNCVDPWLHQHRTCPLCMFNITEGDSFS
Target sequence (chain): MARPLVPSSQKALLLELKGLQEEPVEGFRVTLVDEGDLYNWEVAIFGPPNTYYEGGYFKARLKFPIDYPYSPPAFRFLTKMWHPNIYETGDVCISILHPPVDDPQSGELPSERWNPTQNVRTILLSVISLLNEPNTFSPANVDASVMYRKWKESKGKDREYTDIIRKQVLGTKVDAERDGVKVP
Molecule	lacZ reporter activity
B1 (TRIM52 RING domain)	0
QLQDEEDDSLCRICMDAVIDCVLLECGHMVTCTKCGKRMSECPICRQYVVRAVHVF (RNF34 RING domain (UniProt Q969K3))	0
FLKKLEQSFMCVCCQELVYQPVTTECFHNVCKDCLQRSFKAQVFSCPACRHDLGQNYIMI (UHRF2 RING domain (UniProt Q96PU4))	0
B2 (TRIM55 RING domain)	0
B3 (RNF150 RING domain)	0
B4 (PHF7 RING domain)	0
B5 (RFPL2 RING domain)	0
KIKDLNEHIVCCLCAGYFVDATTITECLHTFCKSCIVKYLQTSKYCPMCNIKIHETQPLL (PCGF1 RING domain (UniProt Q9BSM1))	0
B6 (RNF14 RING domain)	0
B7 (NSMCE1 RING domain)	0
B8 (TRIM10 RING domain)	0
SYEDKSNDFVCPICFDMIEEAYMTKCGHSFCYKCIHQSLEDNNRCPKCNYVVDNIDHLY (COP1 RING domain (UniProt Q8NHY2))	0
B9 (RNF175 RING domain)	0
B10 (RNF43 RING domain)	0

Sample 5 — technique: protein-binding microarray; form: double-stranded DNA, one strand shown; matrix: in vitro; concentration: 250 nM; setting: 60-bp whole probe; together with: salmon DNA 0.4 mg/ml; reference: random background probes; direction: higher = stronger binding; constant ends, left off below: GCCTAGCAC … GTCTTGATTCGCTTGACGCTGCTG
Target: Interferon regulatory factor 7, full length, phosphomimetic (IRF7, Homo sapiens, UniProt Q92985, residues 1-503, S101K/S471D/S472D/S475D/S476D/S477D/S483D/S484D/S487D)
Sequence of UniProt Q92985 (whole entry, unmodified, looked up): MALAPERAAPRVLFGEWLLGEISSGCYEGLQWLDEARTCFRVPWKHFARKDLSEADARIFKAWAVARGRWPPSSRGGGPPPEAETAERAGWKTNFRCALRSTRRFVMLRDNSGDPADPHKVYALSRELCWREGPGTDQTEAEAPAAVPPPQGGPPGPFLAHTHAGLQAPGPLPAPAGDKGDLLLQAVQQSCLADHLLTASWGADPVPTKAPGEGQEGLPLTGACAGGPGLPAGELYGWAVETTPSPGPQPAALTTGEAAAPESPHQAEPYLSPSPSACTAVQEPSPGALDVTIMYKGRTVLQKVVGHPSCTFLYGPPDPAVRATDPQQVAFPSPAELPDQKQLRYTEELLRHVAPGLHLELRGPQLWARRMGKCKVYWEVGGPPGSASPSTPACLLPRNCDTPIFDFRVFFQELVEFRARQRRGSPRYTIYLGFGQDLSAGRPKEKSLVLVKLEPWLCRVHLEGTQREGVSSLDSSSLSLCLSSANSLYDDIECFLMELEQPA
Strand	log fluorescence
TTAGGTCTCGGTCACGGTTAGTGCTAG	0.836 z-score
TTAAGACTGGGTCTCGGTTAGTGCTAG	0.669 z-score
TCAAATGTCCTCCTCTCACTGTGCTAG	0.242 z-score
CTCTTTCTCTGCTACCCTTTGGTGCTA	2.51 z-score
TCATTTTTTTGTATTTTACTGTGCTAG	0.746 z-score
TTAGGACTGGGGTATAGGTTAGTGCTA	-0.175 z-score
TTAGGTTTCCTTCTTCTTTAGTGCTAG	2.46 z-score
GACGGACTGCTTATCCTGTCGTGCTAG	-0.114 z-score
TTTGGTCTCCTTATCCTTTAGTGCTAG	0.677 z-score
GACGATTTCCGTTCCGAGACGTGCTAG	1.3 z-score
GAAGGACTGGACACTGGGGACGTGCTA	-0.757 z-score
ATAGGACTGGACTATCGGTTAGTGCTA	-0.249 z-score
TTAGAACTGAGACTCGATTAGTGCTAG	0.923 z-score
TTAGGACTGGGGTATCGGCTAGTGCTA	-0.657 z-score
TTAAGTCTCGGTATCGGTTAGTGCTAG	3.44 z-score
TGAGCTTACAATATAAAAGGGTGCTAG	-0.245 z-score
GACGATCTCAGTTTCGGGACGTGCTAG	2.82 z-score
GCAGGGCAGGCAGGCTGAGGGTGCTAG	-1.55 z-score
CTTGGCAAGATGAGGAAGATGTGCTAG	-0.753 z-score
GACTATTTCAGTTTCGAGACGTGCTAG	5.53 z-score
GACGGACTGCGGTTTCGGGACGTGCTA	1.88 z-score
TTAGATCTCAGTATCGATTTGTGCTAG	3.11 z-score
GACGGTTTCGACACTGAGGACGTGCTA	3.82 z-score
TCAAATATATATATTGTACTGTGCTAG	0.536 z-score

Repeated from above (sample 5):
Strand	log fluorescence
TTAGAACTGAGACTCGATTAGTGCTAG	0.923 z-score
TTAGGACTGGGGTATCGGCTAGTGCTA	-0.657 z-score
TTAAGTCTCGGTATCGGTTAGTGCTAG	3.44 z-score
TGAGCTTACAATATAAAAGGGTGCTAG	-0.245 z-score
GACGATCTCAGTTTCGGGACGTGCTAG	2.82 z-score
GCAGGGCAGGCAGGCTGAGGGTGCTAG	-1.55 z-score
CTTGGCAAGATGAGGAAGATGTGCTAG	-0.753 z-score
GACTATTTCAGTTTCGAGACGTGCTAG	5.53 z-score
GACGGACTGCGGTTTCGGGACGTGCTA	1.88 z-score
TTAGATCTCAGTATCGATTTGTGCTAG	3.11 z-score
